Experimental data pooled from the literature.
Numbered parts are unrelated; each lists some results of a single study. Positions count from the first letter of the parent shown.
Chain of UniProt Q9ZTX9 (whole entry, looked up): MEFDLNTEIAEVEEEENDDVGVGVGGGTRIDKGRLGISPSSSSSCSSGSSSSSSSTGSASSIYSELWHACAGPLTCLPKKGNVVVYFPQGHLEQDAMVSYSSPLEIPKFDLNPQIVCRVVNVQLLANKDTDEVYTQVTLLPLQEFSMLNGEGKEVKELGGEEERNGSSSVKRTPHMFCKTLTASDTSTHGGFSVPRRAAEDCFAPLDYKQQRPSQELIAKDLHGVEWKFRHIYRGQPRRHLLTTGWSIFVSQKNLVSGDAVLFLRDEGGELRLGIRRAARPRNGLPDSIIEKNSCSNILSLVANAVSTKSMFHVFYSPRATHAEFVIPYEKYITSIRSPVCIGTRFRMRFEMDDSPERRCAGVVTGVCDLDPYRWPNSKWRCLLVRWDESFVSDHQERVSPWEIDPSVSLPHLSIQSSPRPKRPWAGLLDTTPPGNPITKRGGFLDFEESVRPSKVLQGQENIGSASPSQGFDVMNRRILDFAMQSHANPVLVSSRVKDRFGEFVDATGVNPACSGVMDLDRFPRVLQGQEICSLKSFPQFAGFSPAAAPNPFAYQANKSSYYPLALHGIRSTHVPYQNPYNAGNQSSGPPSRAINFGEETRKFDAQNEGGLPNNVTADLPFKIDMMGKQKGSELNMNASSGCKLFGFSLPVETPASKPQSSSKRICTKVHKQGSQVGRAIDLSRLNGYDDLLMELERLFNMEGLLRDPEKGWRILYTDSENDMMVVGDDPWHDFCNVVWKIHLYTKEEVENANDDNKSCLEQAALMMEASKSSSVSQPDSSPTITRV
Chain of UniProt Q9LQE8 (whole entry, looked up): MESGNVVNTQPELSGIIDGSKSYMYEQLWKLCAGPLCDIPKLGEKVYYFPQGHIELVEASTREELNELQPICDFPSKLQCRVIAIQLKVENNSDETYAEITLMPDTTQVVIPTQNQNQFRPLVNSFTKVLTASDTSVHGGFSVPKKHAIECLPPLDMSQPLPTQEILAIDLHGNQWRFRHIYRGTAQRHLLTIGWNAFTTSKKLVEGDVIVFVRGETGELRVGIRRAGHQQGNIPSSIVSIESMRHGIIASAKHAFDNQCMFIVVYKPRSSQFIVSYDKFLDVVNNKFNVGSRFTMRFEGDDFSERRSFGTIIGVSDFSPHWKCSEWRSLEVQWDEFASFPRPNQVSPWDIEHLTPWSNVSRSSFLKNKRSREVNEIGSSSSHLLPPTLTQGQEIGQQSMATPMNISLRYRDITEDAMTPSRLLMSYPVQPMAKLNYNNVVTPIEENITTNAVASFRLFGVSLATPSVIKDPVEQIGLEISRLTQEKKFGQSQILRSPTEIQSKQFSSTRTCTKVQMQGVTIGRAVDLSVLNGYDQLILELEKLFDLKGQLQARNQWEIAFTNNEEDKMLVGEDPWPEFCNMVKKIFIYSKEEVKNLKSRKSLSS
Chain of UniProt Q9FX25 (whole entry, looked up): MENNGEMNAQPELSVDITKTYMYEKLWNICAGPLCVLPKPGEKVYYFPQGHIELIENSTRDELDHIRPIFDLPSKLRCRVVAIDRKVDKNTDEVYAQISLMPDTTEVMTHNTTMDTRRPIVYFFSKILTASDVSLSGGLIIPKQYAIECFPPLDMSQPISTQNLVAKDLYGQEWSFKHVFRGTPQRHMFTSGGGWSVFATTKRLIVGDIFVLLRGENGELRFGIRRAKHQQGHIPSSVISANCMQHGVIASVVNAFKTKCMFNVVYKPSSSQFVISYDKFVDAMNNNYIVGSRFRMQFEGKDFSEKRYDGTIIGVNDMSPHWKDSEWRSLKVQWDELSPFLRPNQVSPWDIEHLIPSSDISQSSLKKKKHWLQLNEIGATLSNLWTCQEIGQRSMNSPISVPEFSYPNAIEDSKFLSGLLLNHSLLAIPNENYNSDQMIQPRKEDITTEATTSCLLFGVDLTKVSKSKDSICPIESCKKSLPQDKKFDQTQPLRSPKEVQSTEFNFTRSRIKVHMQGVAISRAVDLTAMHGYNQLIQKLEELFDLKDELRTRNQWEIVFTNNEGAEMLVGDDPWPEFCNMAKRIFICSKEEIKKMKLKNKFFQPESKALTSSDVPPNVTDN
Chain of UniProt Q9ZTX8 (whole entry, looked up): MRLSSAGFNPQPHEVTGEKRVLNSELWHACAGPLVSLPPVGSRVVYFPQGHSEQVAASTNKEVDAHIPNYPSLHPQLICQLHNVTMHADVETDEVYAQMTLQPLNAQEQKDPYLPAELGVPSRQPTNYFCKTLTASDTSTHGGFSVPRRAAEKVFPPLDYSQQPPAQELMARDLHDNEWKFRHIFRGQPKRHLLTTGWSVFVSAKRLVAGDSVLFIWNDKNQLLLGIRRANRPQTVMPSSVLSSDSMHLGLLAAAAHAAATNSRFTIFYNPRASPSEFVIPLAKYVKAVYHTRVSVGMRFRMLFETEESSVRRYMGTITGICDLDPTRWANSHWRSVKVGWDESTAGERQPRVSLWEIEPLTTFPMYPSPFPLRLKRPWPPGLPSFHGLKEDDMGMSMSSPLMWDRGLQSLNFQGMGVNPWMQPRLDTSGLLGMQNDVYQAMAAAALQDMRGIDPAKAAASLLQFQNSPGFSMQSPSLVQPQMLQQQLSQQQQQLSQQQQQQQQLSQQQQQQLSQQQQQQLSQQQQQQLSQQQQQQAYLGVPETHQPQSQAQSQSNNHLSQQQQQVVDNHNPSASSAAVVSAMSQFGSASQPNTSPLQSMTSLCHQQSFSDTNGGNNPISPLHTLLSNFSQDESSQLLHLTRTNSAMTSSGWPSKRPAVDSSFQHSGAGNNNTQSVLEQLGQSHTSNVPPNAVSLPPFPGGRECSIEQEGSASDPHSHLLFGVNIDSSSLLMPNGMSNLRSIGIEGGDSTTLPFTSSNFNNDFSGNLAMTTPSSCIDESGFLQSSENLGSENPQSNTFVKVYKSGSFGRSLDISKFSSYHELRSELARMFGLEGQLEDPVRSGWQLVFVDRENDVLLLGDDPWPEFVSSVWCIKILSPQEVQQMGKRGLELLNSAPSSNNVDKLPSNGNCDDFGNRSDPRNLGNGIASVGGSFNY
Chain of UniProt Q84WU6 (whole entry, looked up): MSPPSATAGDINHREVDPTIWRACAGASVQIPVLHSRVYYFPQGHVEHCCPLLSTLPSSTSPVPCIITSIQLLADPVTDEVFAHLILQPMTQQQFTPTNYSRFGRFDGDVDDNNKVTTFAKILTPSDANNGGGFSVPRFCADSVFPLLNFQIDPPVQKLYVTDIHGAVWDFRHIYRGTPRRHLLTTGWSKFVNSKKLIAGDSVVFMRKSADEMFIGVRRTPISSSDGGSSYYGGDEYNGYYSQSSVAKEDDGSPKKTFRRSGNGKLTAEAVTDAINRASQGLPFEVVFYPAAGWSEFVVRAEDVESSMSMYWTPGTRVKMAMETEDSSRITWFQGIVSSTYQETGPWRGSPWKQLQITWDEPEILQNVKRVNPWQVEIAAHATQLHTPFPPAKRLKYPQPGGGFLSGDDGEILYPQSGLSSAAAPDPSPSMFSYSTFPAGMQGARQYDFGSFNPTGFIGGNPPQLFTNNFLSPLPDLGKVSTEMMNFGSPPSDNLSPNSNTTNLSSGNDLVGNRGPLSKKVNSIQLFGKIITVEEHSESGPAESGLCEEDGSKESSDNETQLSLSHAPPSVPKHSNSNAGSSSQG
Chain of UniProt Q9XED8 (whole entry, looked up): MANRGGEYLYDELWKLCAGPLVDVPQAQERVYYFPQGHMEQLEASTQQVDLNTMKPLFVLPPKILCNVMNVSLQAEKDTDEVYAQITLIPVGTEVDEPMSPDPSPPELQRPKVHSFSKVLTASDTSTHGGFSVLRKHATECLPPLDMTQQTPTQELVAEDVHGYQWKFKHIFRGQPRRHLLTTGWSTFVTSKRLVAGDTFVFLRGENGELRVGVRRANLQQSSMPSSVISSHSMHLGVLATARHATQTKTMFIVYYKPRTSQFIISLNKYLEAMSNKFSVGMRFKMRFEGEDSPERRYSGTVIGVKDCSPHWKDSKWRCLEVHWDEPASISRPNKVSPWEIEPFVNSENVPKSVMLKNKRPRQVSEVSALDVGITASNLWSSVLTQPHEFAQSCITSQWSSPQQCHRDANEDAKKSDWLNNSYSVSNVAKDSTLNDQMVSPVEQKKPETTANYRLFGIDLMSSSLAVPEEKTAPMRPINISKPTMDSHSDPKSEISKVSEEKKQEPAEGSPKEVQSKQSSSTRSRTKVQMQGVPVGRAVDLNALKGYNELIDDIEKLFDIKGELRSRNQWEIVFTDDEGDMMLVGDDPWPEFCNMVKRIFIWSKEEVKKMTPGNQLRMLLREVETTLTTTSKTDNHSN

Series 1
Target: Fragile X messenger ribonucleoprotein 1, C-terminal low-complexity region (Fmr1, Mus musculus, UniProt P35922)
Technique: RNA Bind-n-Seq
Molecule type: RNA
Sample: in vitro
Tested at: 200 nM
Notes: whole 134-nt RNA, ends assumed
Added: 150 mM LiCl
Baseline: input library
Reading: higher = stronger binding
All molecules: 7-deaza-guanosine replaces G
All sequences stand within: GGGAGUUCUACAGUCCGACGAUC … UGGAAUUCUCGGGUGUCAAGG
| Sequence | log2 enrichment |
| --- | --- |
| UGGGAGGAGGAUUUUGUUUAUUUUUUUAGCUCAUUUCCAGGGGUGGGAAUUUUUUUUUAAUAUGUGUCAUGAAUAAAGUUGUUUUUGAAA | 0.168 |
| GUCCUGUGCUACACAUCGUAUGUACCGAAUCGGGGAAAGGGGUUUUUGGGGUUUGGGGAAAGUAUUAUGUUACGCCGUUCGGAUCUGCAC | -1.54 |
| GUCCUGUGCUACACAUCGUAUGUACCGAAUCGGGGCCCCGGGGCCCCGGGGCCCCGGGAAAGUAUUAUGUUACGCCGUUCGGAUCUGCAC | 0.455 |
| ACCAUGCAGGUGGGCAUCUUUGGGAAGUGGGGCAAGGGGGGGAUAGGGAGGGGGGUAACACUUUGCGAACAGGUGGUCCCAGGUCGUUUC | 1.04 |
| UGCCAUGGACAAUAUUACCAGGCAGAACCAAUUCUACGAUACCCAAGUCAUCAAACAAGAAAACGAGUCAGGCUACGAGAGGAGACCACU | 0.516 |
| UCAAGUCCUGUGCUACACAUCGUAUGUACCGAAUCGGGGUUGGGUUGGGGUUGGGAAAGUAUUAUGUUACGCCGUUCGGAUCUGCACUUC | -1.03 |
| UCAAGUCCUGUGCUACACAUCGUAUGUACCGAAUCGGGCCGGGCCGGGCCGGGGAAAGUAUUAUGUUACGCCGUUCGGAUCUGCACUUCC | 0.587 |
| CAAGUCCUGUGCUACACAUCGUAUGUACCGAAUCGGAGGUUUUUUUGGUUUUUGGAAAGUAUUAUGUUACGCCGUUCGGAUCUGCACUUC | -1.69 |

Series 2
Target: CRIPT, C-terminal peptide
Technique: DHFR complementation, deep sequencing
Sample: yeast
Notes: single substitutions, model-inferred values
Baseline: wild type
Reading: higher = weaker binding
Starting sequence: ERBIN, PDZ domain 1 (human); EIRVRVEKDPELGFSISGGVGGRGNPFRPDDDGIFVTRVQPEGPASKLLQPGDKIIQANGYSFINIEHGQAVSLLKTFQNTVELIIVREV; partner TKNYKQTSV
| Variant | binding free energy change [kcal/mol] |
| --- | --- |
| G13W | 1.26 |
| R3L | -0.2 |
| R88T | 0.316 |
| G21M | 0.219 |
| P29R | 0.144 |
| P10D | -0.294 |
| E83I | 0.202 |
| A71C | 0.115 |

Series 3
Molecule: ETT (Arabidopsis thaliana, UniProt O23661)
Chain of UniProt O23661 (whole entry, looked up): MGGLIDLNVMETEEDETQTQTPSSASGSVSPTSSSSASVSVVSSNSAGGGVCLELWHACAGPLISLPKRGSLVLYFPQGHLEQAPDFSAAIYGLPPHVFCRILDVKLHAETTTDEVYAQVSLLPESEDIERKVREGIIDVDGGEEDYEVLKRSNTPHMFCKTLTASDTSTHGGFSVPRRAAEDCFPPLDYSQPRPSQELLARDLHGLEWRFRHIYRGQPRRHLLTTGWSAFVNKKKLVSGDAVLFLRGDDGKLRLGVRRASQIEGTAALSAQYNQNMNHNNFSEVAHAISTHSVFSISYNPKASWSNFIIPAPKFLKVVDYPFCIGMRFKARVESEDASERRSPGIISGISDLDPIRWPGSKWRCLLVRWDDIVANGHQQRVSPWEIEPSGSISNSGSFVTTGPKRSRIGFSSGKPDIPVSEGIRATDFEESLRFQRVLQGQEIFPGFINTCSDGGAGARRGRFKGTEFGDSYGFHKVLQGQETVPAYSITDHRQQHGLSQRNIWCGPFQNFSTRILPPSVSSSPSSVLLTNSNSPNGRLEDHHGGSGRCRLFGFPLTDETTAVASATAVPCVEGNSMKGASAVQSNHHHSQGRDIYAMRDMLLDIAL
Technique: two-hybrid
Reading: higher = firmer interaction
| partner | setting | how to read | positive tests |
| --- | --- | --- | --- |
| ARF14 497-605 (Arabidopsis thaliana, UniProt Q9LQE8) | – | baseline: out of 0 tests | 0 |
| ARF9 519-638 (Arabidopsis thaliana, UniProt Q9XED8) | weak activation fusion | baseline: out of 2 tests | 0 |
| ARF17 (Arabidopsis thaliana, UniProt Q84WU6) | weak activation fusion | baseline: out of 2 tests | 0 |
| ARF7 1030-1164 (Arabidopsis thaliana, UniProt P93022) | – | baseline: out of 3 tests | 0 |
| ARF13 (Arabidopsis thaliana, UniProt Q9FX25) | – | baseline: out of 2 tests | 0 |
| ARF6 790-935 (Arabidopsis thaliana, UniProt Q9ZTX8) | – | baseline: out of 3 tests | 0 |
| ARF4 660-788 (Arabidopsis thaliana, UniProt Q9ZTX9) | – | baseline: out of 2 tests | 0 |
| ARF20 484-590 (Arabidopsis thaliana, UniProt Q9C7I9) | – | baseline: out of 2 tests | 0 |

Further values, each from its own experiment
Starting sequence: viral docking peptide; KGVKRKLFAEDSS; partner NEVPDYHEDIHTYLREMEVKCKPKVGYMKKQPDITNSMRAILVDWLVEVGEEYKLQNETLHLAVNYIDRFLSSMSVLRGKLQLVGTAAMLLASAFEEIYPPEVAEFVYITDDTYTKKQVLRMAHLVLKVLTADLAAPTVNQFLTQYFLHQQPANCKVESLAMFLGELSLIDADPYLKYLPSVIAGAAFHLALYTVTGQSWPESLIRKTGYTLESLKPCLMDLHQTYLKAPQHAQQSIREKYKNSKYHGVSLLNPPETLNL
| Variant | target | assay | system | setting | how to read | quantity | result |
| --- | --- | --- | --- | --- | --- | --- | --- |
| A9P | CCNA2, cyclin fold, Cln2 fusion (human) | yeast growth competition, sequencing | yeast | strong parent motif | baseline: not given, higher = stronger binding | normalised enrichment score | 6.12 |
